Assay results from different studies.
A part holds a random share of what one study measured. Substitutions count along the parent as printed.
Chain of UniProt Q96PY6 (whole entry, looked up): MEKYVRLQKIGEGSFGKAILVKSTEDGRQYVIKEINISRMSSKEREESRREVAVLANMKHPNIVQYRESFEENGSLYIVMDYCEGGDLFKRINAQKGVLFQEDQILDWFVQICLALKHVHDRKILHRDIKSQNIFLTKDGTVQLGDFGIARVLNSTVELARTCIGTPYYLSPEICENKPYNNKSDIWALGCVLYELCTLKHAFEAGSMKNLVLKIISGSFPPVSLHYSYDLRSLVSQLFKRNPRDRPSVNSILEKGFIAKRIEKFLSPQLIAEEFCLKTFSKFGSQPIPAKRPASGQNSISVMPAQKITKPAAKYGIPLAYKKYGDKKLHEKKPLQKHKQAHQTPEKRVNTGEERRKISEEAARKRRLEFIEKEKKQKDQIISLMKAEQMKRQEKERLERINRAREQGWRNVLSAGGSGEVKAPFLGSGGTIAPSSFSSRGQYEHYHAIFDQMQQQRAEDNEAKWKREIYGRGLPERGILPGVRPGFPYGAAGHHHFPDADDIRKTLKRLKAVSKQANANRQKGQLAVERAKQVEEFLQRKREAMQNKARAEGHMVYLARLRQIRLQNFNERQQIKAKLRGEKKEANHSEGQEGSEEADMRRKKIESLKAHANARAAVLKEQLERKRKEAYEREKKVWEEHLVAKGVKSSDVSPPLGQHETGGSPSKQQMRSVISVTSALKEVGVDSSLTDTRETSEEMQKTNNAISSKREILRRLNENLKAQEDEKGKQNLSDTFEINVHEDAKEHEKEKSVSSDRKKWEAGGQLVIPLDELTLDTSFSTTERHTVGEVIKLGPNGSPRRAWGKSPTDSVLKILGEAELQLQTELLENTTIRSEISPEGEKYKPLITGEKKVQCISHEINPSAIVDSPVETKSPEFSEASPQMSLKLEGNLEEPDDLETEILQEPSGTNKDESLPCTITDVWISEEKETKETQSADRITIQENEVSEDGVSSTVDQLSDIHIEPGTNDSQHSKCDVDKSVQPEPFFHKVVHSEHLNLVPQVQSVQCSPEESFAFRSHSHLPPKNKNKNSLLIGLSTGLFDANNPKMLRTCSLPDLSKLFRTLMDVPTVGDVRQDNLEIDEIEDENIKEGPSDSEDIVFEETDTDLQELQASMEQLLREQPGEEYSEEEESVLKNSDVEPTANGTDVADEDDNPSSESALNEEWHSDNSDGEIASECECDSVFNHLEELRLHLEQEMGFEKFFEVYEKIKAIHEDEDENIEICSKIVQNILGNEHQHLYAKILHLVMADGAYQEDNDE

Series 1 — method: protein binding microarray; molecule type: double-stranded DNA, one strand shown; sample: in vitro; tested at: not given; baseline: not given; direction: higher = stronger binding
Target: Histone acetyltransferase KAT6A, winged helix 2, GST fusion (KAT6A, Homo sapiens, UniProt Q92794, residues 85-181)
Notes: 8-mer, flanks averaged, mean of 2 arrays, mostly near background
Target sequence (chain): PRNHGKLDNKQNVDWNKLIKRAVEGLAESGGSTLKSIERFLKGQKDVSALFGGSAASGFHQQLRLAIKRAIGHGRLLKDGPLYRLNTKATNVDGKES
Oligonucleotide	E-score
CCAATGTA	-0.238
TCGCCGCA	0.167
AAGGTACA	-0.0872
AATCAGCG	0.103
CTTGCAAA	0.131
CGGCAGGC	0.127
CGAGACTC	-0.0942
GGTGGCCA	-0.0355

Series 2 — method: aptamer microarray, sandwich; molecule type: DNA with 2'F-ANA; sample: in vitro; tested at: 200 nM; together with: Cy3 exosite-II aptamer, 400 nM; direction: higher = stronger binding; oligonucleotide: GGTTGGTGTGGTTGG
Target: Prothrombin, mature alpha-thrombin (F2, Homo sapiens, UniProt P00734)
Notes: whole 15-mer aptamer, many near background
Modification	mean fluorescence intensity [a.u.]
2'F-ANA at 5 9 10 11 12 15	49.4
2'F-ANA at 1 3 6 8 9 14	86.4
2'F-ANA at 1 2 7 8 9 10 13 14	45.4
2'F-ANA at 1 2 3 4 8 10 11 15	64
2'F-ANA at 1 2 3 6 10	64.6
2'F-ANA at 2 3 4 5 6 8 10 13	55.2
2'F-ANA at 1 2 3 6 11 13 15	133
2'F-ANA at 1 2 3 5 7 8 10 11 14 15	45.9

Series 3 — target: CCNF, cyclin fold, Cln2 fusion (human); method: yeast growth competition, sequencing; sample: yeast; notes: strong parent motif; baseline: not given; direction: higher = stronger binding
Starting sequence: CDC25A docking peptide (human); PPHRRRLLFACSP
Change	normalised enrichment score
WPHRRRLLFACSP [P1W]	7.72
PPHRRRLLFACSY [P13Y]	7.77
PPHRRRLLFATSP [C11T]	7.92
PPHRRRLLFTCSP [A10T]	8.21
PPHRRRLLFACSW [P13W]	5.68
PPHRRPLLFACSP [R6P]	0.992
IPHRRRLLFACSP [P1I]	7.64
PPFRRRLLFACSP [H3F]	8.43

Single results of other studies
SMILES	target	effect on	mode	tested at	baseline	quantity	result
O=C1Nc2ccc(Br)cc2/C1=C/c1cc2c([nH]1)CCCC2	Serine/threonine-protein kinase Nek1 (NEK1, Homo sapiens, UniProt Q96PY6)	enzyme activity	inhibitor	0.5 µM	control	remaining activity	94.6%

Excerpt of the above (series 2):
Modification	mean fluorescence intensity [a.u.]
2'F-ANA at 1 3 6 8 9 14	86.4
2'F-ANA at 1 2 7 8 9 10 13 14	45.4
